# Experimental data of several laboratories.
# A part holds a random share of what one study measured. Positions count from the first letter of the parent shown.

# Series 1
# Target: Histone acetyltransferase KAT6A, winged helix 1, GST fusion (KAT6A, Homo sapiens, UniProt Q92794, residues 1-85)
# Technique: protein binding microarray
# Molecule type: double-stranded DNA, one strand shown
# Sample: in vitro
# Concentration: not given
# Setting: 8-mer, flanks averaged, mean of 2 arrays, mostly near background
# Baseline: not given
# Direction: higher = stronger binding
# Construct (chain): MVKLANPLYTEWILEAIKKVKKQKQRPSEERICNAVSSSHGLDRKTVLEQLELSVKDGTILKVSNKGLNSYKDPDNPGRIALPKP
Strand,E-score
CCGTCAGA,0.2
AAGTTGGA,-0.269
GGCTTCGA,0.111
CGTCAAAG,-0.15
CTACTATC,0.0895
AGACTTTA,-0.196
GGGTGAAC,-0.121
ATGACGGA,0.0105
AACACCTA,-0.0425
CTAGTAAC,-0.0485
CAGTAAGA,-0.112
GTCAGCGA,0.148
GAAGAGTC,-0.192
AGCGTTAG,-0.086
ACGAGTTC,-0.22
AAGGACCA,-0.149
CACGGGTA,0.287
CAACCTGG,-0.224
ACCAGATC,-0.0958
AATGCTCC,-0.00392
CTACCGGC,0.271
TGGACAAA,-0.177
AATTGAAT,-0.119
GGGGAATA,-0.0898
AAACTGCC,-0.103

# Series 2
# Target: PABPC1L2, full length, GST fusion (mouse, UniProt A0ABA7IW68)
# Technique: RNAcompete
# Molecule type: RNA
# Sample: in vitro
# Concentration: 20 nM
# Setting: 7-mer, probes averaged, single round
# Baseline: mean of 7-mers
# Direction: higher = stronger binding
# Residues (chain): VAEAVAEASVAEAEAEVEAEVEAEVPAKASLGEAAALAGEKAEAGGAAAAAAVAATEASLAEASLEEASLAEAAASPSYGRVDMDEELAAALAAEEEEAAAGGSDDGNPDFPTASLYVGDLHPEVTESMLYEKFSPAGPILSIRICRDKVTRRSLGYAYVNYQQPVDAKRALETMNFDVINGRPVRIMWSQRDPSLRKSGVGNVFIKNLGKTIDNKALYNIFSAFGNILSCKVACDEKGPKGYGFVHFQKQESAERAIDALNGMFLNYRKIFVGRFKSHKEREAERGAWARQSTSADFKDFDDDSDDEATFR
Strand,7-mer Z-score
CUGGACC,-0.0953
UAUUGUG,-0.188
AUCAGUC,-0.19
GUGAGGU,-0.171
UCUUAAC,-0.389
CCCAGGU,-0.291
CCCGUAU,-0.277
UUAGCUC,-0.235
GUAUAGC,-0.0591
GUGCCAC,-0.217
ACAGCGA,0.0895
GCGAUAU,-0.164

# Series 3
# Target: CCNE2, cyclin fold, Cln2 fusion (human)
# Technique: yeast growth competition, sequencing
# Sample: yeast
# Setting: strong parent motif
# Baseline: not given
# Direction: higher = stronger binding
# Starting sequence: E2F1 docking peptide (human); PPVKRRLDFETDH
Variant,normalised enrichment score
D12L,6.52
K4M,3.71
D8Y,6.47
P2D,4.45
E10H,5.86
R5F,-0.0356
V3P,1.81
E10V,5.73
R6V,5.6
E10P,5.02
T11Q,5.48
R6W,2.67

# Series 4
# Target: RNA binding protein fox-1 homolog 2, RRM domain, GST-SBP tag (RBFOX2, Homo sapiens, UniProt O43251-10, residues 100-194)
# Technique: RNA Bind-n-Seq
# Molecule type: RNA
# Sample: in vitro
# Concentration: 365 nM
# Setting: natural RNA segment, single round, ends assumed
# Baseline: no-protein control
# Direction: higher = stronger binding
# Shared flanks, not repeated: GGGAGUUCUACAGUCCGACGAUC … UGGAAUUCUCGGGUGCCAA
# Residues (chain): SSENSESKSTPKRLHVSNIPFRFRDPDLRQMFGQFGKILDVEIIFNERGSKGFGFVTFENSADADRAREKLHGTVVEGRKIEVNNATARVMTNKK
Strand,RBNS enrichment (R)
AAAUAUCUUUUGGUUCCAAAUAGAAAGACAAUUCUUUAUUGUCUGACUGUAAUACAGCCUUCAUUGUGCUAUUCAUCCCAUUGUUUGCUUCACUCUGUCUGUGUAAAAGC,0.67
UUGUAUAUCCCCCAAAUUAAAAUUUACUUCAAAGGUGUUAAAGAUUUCAUGUCCUAUAUUAAAGUACAAAUAGGCUUAAAUUACUGGAUAUUUAAUGUAGUUUCCCAUCC,0.594
CAGUUUGGGUUCACAAAAGGGGGUGCCGUCAUCCCUGGGUGGAGGAGGGAGUGUUGGUUUUUUGUUUUUGUUUUUUUAACAUGUAUGAAACUGACAUCUUCUCAAAUCUU,0.279
ACGGGCCGGGCAGUGGUGAGGUCACUGUGAAUGGAGGUUUGUUUCCCAUGAGAUCGGACACUGUCCGCAGUCCGAUAUGCCACCAGUGAGCUAGAGCAAUCCAGGAGACU,1.24
GGAAGAUCCACAAUCAAGUUCUCAAGUAACCACUUCAUAAUAUACUGCUGAAGGGCUUCUUCUUAUAGCAAGAACUCUGCACAGCAACUGCCUGGAUGUGUUUGAUUUUU,0.563
UAUUUGACAAGUAGAAGUUAACUUACUUGUCAGGGAGGGCAGACGUUUUUUUGUUCUGUUUCGUUUUUCAAAAUAAUGCUUUUUGCAAAAGAGGUAAGACUGAGACUAAA,0.25
UUAAGACUCACACUCCUGGCUCAGCAGUGGUUUUCCAGAAGGCCCAAAGAGCGGUGCCGGGCACCCCACGUCGCAGUGUCCGUUCCGGGCUUGGGAAGCUGGGGAGGUGG,0.487
GGGCCAGGUCUGCCCAGCGUUUACCACUGCUGUCAAGCCACAGCCCUUGGCCACCAUACGGGCCAUCCUCAGUGAGGCAGCCCCCCAUAGGCUUCCGCCAAGCUCUGGUC,0.224
GCCAGGCAGAGCUGGUGUGACUUGAGGUGGCGCCAGCCUCUCAGGCAUGGUGGCUGGGUUGGUGAUAUACAGUGCAGCAGAGCUGCCCUCAGACGUGGGACUGCAGAGUC,1.38
GGCUCUACAGUGCUUACUGCAGCCUUGUGUCCACCACCAACUUCUCAGCAUGUUUCUCUCCUUGGACCUUGGGUUUCCAACUCUGCAGCCUUCAGGUCUGGGGCCAGGAG,19.6
CAGUACAUUGACGGGCAGGGCCGGCCCCGCACCAGCCAGUCUGAGGAGACCCGCGUGUGGCACCGCCGCGACGGCAAGUGGCAGAACGUGCACUUCCACUGCUCGGGCGC,0.43
AUGCUUCUCUGUUGUCACACAACACCUUUCCCUGUUUCUCUUCAGUUGUCCUCUGAUAUUUUCACAGCCUGUUAGUGGCGGCUGAUCUGUAGAGGUAUGAAAAUACAGCC,0.32

# Series 5
# Target: Ras GTPase-activating protein-binding protein 1, full length (G3BP1, Homo sapiens, UniProt Q13283)
# UniProt Q13283, sequence (whole entry, looked up): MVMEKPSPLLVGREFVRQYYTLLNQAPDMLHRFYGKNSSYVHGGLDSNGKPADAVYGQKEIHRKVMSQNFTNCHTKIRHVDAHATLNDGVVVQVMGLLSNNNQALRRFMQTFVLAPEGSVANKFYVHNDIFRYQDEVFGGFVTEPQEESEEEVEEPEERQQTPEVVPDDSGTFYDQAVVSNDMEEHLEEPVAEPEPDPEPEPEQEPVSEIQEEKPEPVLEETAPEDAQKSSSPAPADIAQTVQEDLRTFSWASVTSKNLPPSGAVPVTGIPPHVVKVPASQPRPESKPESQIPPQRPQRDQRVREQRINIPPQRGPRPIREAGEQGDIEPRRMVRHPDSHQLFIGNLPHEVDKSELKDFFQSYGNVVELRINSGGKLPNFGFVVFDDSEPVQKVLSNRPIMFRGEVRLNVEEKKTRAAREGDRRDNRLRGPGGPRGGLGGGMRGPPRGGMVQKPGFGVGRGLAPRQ
# Technique: RNA Bind-n-Seq
# Molecule type: RNA
# Sample: in vitro
# Concentration: 200 nM
# Setting: whole 134-nt RNA, ends assumed
# Added: 150 mM LiCl
# Baseline: input library
# Direction: higher = stronger binding
# Each molecule: 7-deaza-guanosine replaces G
# Shared flanks, not repeated: GGGAGUUCUACAGUCCGACGAUC … UGGAAUUCUCGGGUGUCAAGG
Strand,log2 enrichment
UCCUCAAGUCCUGUGCUACACAUCGUAUGUACCGAAUCGGCGGCGGGCGGGGAAAGUAUUAUGUUACGCCGUUCGGAUCUGCACUUCCAG,0.862
CAAGUCCUGUGCUACACAUCGUAUGUACCGAAUCGGGGAAAGGGGUGGGGUGGGGAAAGUAUUAUGUUACGCCGUUCGGAUCUGCACUUC,-0.182
AGUCCUGUGCUACACAUCGUAUGUACCGAAUCGGGGAAAAGGGAAAAGGGGAAAAGGGAAAGUAUUAUGUUACGCCGUUCGGAUCUGCAC,-0.199
UAACUUUAGAGGAGGAUCUGAUGGAUAUGGCAGUGGACGUGGAUUUGGGGAUGGCGAUAAUGGGUAUGGAGGAGGACCUGGAGGUGGCAA,0.251
ACCAUGCAGGUGAAAAUCUUUGGGAAGUGGGGCAAGGGGGGGAUAGGGAGGGGGGUAACACUUUGGGAACAGGUGGUCCCAGGUCGUUUC,0.396
CCUGUGCUACACAUCGUAUGUACCGAAUCGGGGUUUGGGGAAAAAAAGGGGUUUUUGGGGAAAGUAUUAUGUUACGCCGUUCGGAUCUGC,0.308
ACCAUGCAGGUGGGCAUCUUUGGGAAGUGGGGCAAGGGGGGGAUAGGGAGGGGGGUAACACUUUGGGAACAGGUGGUCCCAGGGCGUUUC,0.371
UAAUUGUGAUCUACAUUUUAAAAUAUCAAGAGAUCGUCUCAGUGCUUCUUCCCUUACAAUGGAGAGUUUUGCUUUUCUUUGGGCUGGAGG,-2.32

# Series 6
# Target: Sal-like protein 4, full length isoform B (SALL4, Homo sapiens, UniProt Q9UJQ4-2, residues 1-616)
# Technique: universal PBM
# Molecule type: double-stranded DNA, one strand shown
# Sample: in vitro
# Concentration: not given
# Setting: 8-mer, flanks averaged, mean of replicates
# Direction: higher = stronger binding
# Target sequence (chain): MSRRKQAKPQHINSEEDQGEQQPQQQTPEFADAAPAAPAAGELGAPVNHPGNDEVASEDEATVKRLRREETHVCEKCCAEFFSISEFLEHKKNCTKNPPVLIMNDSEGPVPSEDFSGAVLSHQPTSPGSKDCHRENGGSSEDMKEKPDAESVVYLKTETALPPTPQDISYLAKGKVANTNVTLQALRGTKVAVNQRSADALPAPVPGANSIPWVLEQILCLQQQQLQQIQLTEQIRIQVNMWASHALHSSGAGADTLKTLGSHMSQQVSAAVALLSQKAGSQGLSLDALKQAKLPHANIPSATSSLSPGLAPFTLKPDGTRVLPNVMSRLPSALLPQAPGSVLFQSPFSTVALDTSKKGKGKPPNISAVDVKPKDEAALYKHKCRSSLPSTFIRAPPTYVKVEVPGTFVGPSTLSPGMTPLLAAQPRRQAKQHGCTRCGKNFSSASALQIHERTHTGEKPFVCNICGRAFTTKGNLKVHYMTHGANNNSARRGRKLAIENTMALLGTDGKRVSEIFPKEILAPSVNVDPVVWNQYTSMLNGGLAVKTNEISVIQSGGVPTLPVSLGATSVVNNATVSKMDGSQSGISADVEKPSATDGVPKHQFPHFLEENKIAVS
Strand,E-score
CAATTCGA,0.0398
ACATTACG,0.185
ACTATTGA,0.215
CTCACCAA,0.138
AGATTAGC,-0.0108
CGTGCACA,-0.00993
ATGGGTCC,-0.0721
CAGTTTGA,0.0128
CAAGTACA,0.0974
CCTCGTTA,0.112
AATATCCC,0.175
CGGACTGC,-0.138
GCGTTAGA,-0.0809
CTCACCCA,-0.103
ATAGTCTG,0.164
ATAGCGAT,-0.0546
GAACATGC,-0.0403
GGTGGTAC,-0.185
AGAGACTA,0.0201
CCCCCCCC,-0.31
CGTTTTCC,0.0854
GACCGATA,0.0114
AGGGAGTA,0.0164
AACTGTCT,-0.11
ATAGGGTC,-0.0388

# Excerpt of the above (series 4):
Strand,RBNS enrichment (R)
CAGUACAUUGACGGGCAGGGCCGGCCCCGCACCAGCCAGUCUGAGGAGACCCGCGUGUGGCACCGCCGCGACGGCAAGUGGCAGAACGUGCACUUCCACUGCUCGGGCGC,0.43
AAAUAUCUUUUGGUUCCAAAUAGAAAGACAAUUCUUUAUUGUCUGACUGUAAUACAGCCUUCAUUGUGCUAUUCAUCCCAUUGUUUGCUUCACUCUGUCUGUGUAAAAGC,0.67
ACGGGCCGGGCAGUGGUGAGGUCACUGUGAAUGGAGGUUUGUUUCCCAUGAGAUCGGACACUGUCCGCAGUCCGAUAUGCCACCAGUGAGCUAGAGCAAUCCAGGAGACU,1.24
CAGUUUGGGUUCACAAAAGGGGGUGCCGUCAUCCCUGGGUGGAGGAGGGAGUGUUGGUUUUUUGUUUUUGUUUUUUUAACAUGUAUGAAACUGACAUCUUCUCAAAUCUU,0.279
GGAAGAUCCACAAUCAAGUUCUCAAGUAACCACUUCAUAAUAUACUGCUGAAGGGCUUCUUCUUAUAGCAAGAACUCUGCACAGCAACUGCCUGGAUGUGUUUGAUUUUU,0.563
GGGCCAGGUCUGCCCAGCGUUUACCACUGCUGUCAAGCCACAGCCCUUGGCCACCAUACGGGCCAUCCUCAGUGAGGCAGCCCCCCAUAGGCUUCCGCCAAGCUCUGGUC,0.224
AUGCUUCUCUGUUGUCACACAACACCUUUCCCUGUUUCUCUUCAGUUGUCCUCUGAUAUUUUCACAGCCUGUUAGUGGCGGCUGAUCUGUAGAGGUAUGAAAAUACAGCC,0.32
GGCUCUACAGUGCUUACUGCAGCCUUGUGUCCACCACCAACUUCUCAGCAUGUUUCUCUCCUUGGACCUUGGGUUUCCAACUCUGCAGCCUUCAGGUCUGGGGCCAGGAG,19.6
UAUUUGACAAGUAGAAGUUAACUUACUUGUCAGGGAGGGCAGACGUUUUUUUGUUCUGUUUCGUUUUUCAAAAUAAUGCUUUUUGCAAAAGAGGUAAGACUGAGACUAAA,0.25
UUGUAUAUCCCCCAAAUUAAAAUUUACUUCAAAGGUGUUAAAGAUUUCAUGUCCUAUAUUAAAGUACAAAUAGGCUUAAAUUACUGGAUAUUUAAUGUAGUUUCCCAUCC,0.594
GCCAGGCAGAGCUGGUGUGACUUGAGGUGGCGCCAGCCUCUCAGGCAUGGUGGCUGGGUUGGUGAUAUACAGUGCAGCAGAGCUGCCCUCAGACGUGGGACUGCAGAGUC,1.38
